Measured values of several laboratories.
Each line is one published result; not all experiments were run side by side. ± gives the spread as reported. Values after ≈ are worked out from the molar mass of the structure shown.

CC1=CC[C@@H]2C[C@H]1C2(C)C — choice of control (Mythimna separata; olfactory preference, Y-tube olfactometer; males; baseline: liquid paraffin control): 67%
C=Cc1cn([C@@H]2O[C@H](CO)C[C@H]2O)c2ncnc(N)c12 — EC50 (Trypanosoma vivax; parasite growth, resazurin; 24 h): 1570 nM
C=C(C)[C@@H]1CC[C@]2(CNCCN3CCS(=O)(=O)CC3)CC[C@]3(C)[C@H](CC[C@@H]4[C@@]5(C)CC[C@H](OC(=O)CC(C)(C)C(=O)O)C(C)(C)[C@@H]5CC[C@]43C)[C@@H]12 — CA-SP1 accumulation (human immunodeficiency virus 1; western blot; HEK293T transfected, subtype B NL4-3, virion lysates; 100 nM; baseline: total CA): 70 to 75%
O=C(/C=C/c1ccccc1)N[C@@H](CCCCCC(=O)NO)C(=O)Nc1cccc2cccnc12 — IC50 (Lucilia cuprina; pupation; LS strain, larvae on impregnated cotton wool; 216 h): 20 µg
Nc1ncnc2c1ccn2[C@@H]1O[C@H](CO)C[C@H]1O — EC50 (Trypanosoma vivax; parasite growth, resazurin; 24 h): 3480 nM
Oc1c(Cl)cc(Cl)c2cccnc12 — MIC (Shewanella putrefaciens; agar dilution; ATCC 8071): 37.4 µM (≈ 8 µg/mL)
CN(C)c1ncnc2c1c(-c1ccc(Oc3ccccc3)cc1)cn2C1CCCC1 — intracellular growth (Plasmodium falciparum; invasion IC50, ring stage): no effect
CC1=CC[C@@H]2[C@H](C1)C2(C)C — choice of control (Mythimna separata; olfactory preference, Y-tube olfactometer; females; baseline: liquid paraffin control): 60%
CC1(CCCCCCCCCCOCCCOP(=O)(O)CO[C@H](CO)Cn2ccc(N)nc2=O)COC1 — selectivity index (Betapolyomavirus hominis; qPCR; Gardner; baseline: CC50 over EC50): > 59
CCN(CC)c1ccc2nc3c4ccccc4/c(=N/c4ccncc4)cc-3oc2c1 — growth inhibition (Plasmodium falciparum; NF54; 250 ng/mL, 6 h, rings, trophozoites, schizonts): > 99%
O=[N+]([O-])c1ccc(CSc2nnc(C34CC5CC(CC(C5)C3)C4)n2-c2ccccc2)cc1 — inhibition zone (Candida albicans; microbial growth, disc diffusion; IFO0583; 200 µg/disc, 48 h): 12 mm
CN1C[C@H](c2cccc(C(F)(F)F)c2)[C@@H](C(=O)Nc2ccccc2F)C1=O — growth inhibition reversal (Arabidopsis thaliana; 5 µM, added: IMP): no effect
Oc1c(Br)ccc2cccnc12 — MIC (Aeromonas hydrophila; microbial growth, agar dilution): 35.7 µM (≈ 8 µg/mL)
CC(C)C(C(=O)Nc1ccc(C(=O)NO)cc1)c1ccccc1 (stereo not shown) — IC50 (Lucilia cuprina; larval weight gain; LS strain, larvae on impregnated cotton wool; 24 h): 34 µg
CC1COCCN1c1nc(NCc2cccnc2C(F)(F)F)c2cccnc2n1 (stereo not shown) — EC50 (Brugia malayi; Wolbachia load, wsp/gst qPCR; microfilariae; 6 d): 150 nM
COc1cc(OC)c2c(c1)C(=O)c1cc3oc(=O)cc(-c4ccc(Cl)cc4)c3c(O)c1C2=O — zone of inhibition (Pseudomonas aeruginosa; MTCC 2453; 100 µg/disc): 8 mm
CC(C)Oc1ncnc2c1c(Cl)cn2[C@@H]1O[C@H](CO)[C@@H](O)[C@H]1O — EC50 (Trypanosoma vivax; parasite growth, resazurin; 24 h): 120 nM
O=C(NO)c1ccc(CC(=O)N(CCO)c2ccccc2)cc1 — IC50 (Lucilia cuprina; larval weight gain; LS strain, larvae on impregnated cotton wool; 24 h): > 1000 µg
O=c1[nH]cc(C(c2ccccc2Br)c2c[nH]c(=O)[nH]c2=O)c(=O)[nH]1 — IC50 (HIV-1 subtype C; viral replication, refers to: p24): 112 µg/mL
CC[C@H](C)[C@H](NC(=O)[C@@H](NC(=O)[C@H](Cc1ccc(O)cc1)NC(=O)[C@H](CCCCN)NC(=O)[C@H](CCCCN)NC(=O)[C@H](CC(C)C)NC(=O)[C@H](CC(=O)O)NC(=O)[C@H](Cc1ccc(O)cc1)NC(=O)[C@H](CCC(N)=O)NC(=O)[C@H](CCCCN)NC(=O)[C@@H](NC(=O)[C@H](Cc1ccccc1)NC(=O)[C@H](CCCCN)NC(=O)[C@H](CCCCN)NC(=O)[C@H](Cc1c[nH]c2ccccc12)NC(=O)[C@H](CCCCN)NC(=O)[C@H](CCSC)NC(=O)[C@H](CCCNC(=N)N)NC(=O)[C@H](CCCNC(=N)N)NC(=O)[C@H](CC(N)=O)NC(=O)[C@H](CCC(N)=O)NC(=O)[C@H](Cc1ccccc1)NC(=O)[C@H](Cc1c[nH]c2ccccc12)NC(=O)[C@@H](NC(=O)[C@H](CCCCN)NC(=O)[C@@H](NC(=O)[C@H](CCC(N)=O)NC(=O)[C@@H](N)CCCNC(=N)N)[C@@H](C)CC)[C@@H](C)CC)[C@@H](C)CC)[C@@H](C)CC)C(=O)O — time to TUNEL positivity (Plasmodium falciparum; 50 µM): 4 h
COc1cc(/C=C/C(=O)N[C@@H](CCCCCC(=O)NO)C(=O)Nc2cccc3cccnc23)cc(OC)c1O — IC50 (Lucilia cuprina; larval weight gain; LS strain, larvae on impregnated cotton wool; 24 h): > 1000 µg
O=c1[nH]cc(C(c2cccc(C(F)(F)F)c2)c2c[nH]c(=O)[nH]c2=O)c(=O)[nH]1 — IC50 (HIV-1 subtype C; viral replication, refers to: p24): 192 µg/mL
COc1ccc(-n2c(=O)c(C(=O)C3C(=O)CCCC3=O)nc3c(F)cccc32)cc1 — ED90 (Monochoria vaginalis; herbicidal activity, paddy pot test, visual rating; 28 days): 6.3 g a.i./10 a
Fc1ccc2c(c1)c1nc3ccc(Br)cc3c-1cn2Cc1cn(-c2ccccc2I)nn1 — fold change (Giardia duodenalis; UHPLC-Q-TOF-MS, refers to: Phytosphingosine; trophozoites; IC50, m/z 318.3, retention 6.6 min; baseline: 0.25% DMSO): 10
CC(=O)[O-].O.O.O.O.[Co+2].[O-]c1ccc(Br)cc1C=NCCN1CCOCC1 — inhibition zone diameter (Chromobacterium violaceum; 20 µL of 100 µM per disc): 16 mm
C=C(C)[C@@H]1CC[C@]2(CNCCN3CCN(S(C)(=O)=O)CC3)CC[C@]3(C)[C@H](CC[C@@H]4[C@@]5(C)CC[C@H](OC(=O)CC(C)(C)C(=O)O)C(C)(C)[C@@H]5CC[C@]43C)[C@@H]12 — CA-SP1 accumulation (human immunodeficiency virus 1; western blot; HEK293T transfected, subtype B NL4-3, virion lysates; 100 nM; baseline: total CA): 70 to 75%
C[OH+][Cu-2]12[O]C(c3cn(-c4ccccc4)nc3-c3ccccc3)=N[N+]1=C(C)c1c(cc(C)oc1=O)[O]2 (stereo not shown) — parasitaemia suppression (Plasmodium falciparum; 3D7; 100 µg/mL, 72 h): 100%
Nc1ncnc2c1ccn2[C@H]1C[C@H](O)[C@@H](CO)O1 — EC50 (Trypanosoma vivax; parasite growth, resazurin; 24 h): > 64000 nM
CCc1cccc2c(C(=O)COC(=O)C34CC5CC(CC(Br)(C5)C3)C4)c[nH]c12 — mRNA level (Arabidopsis thaliana; qRT-PCR, refers to: BRC1; seedlings 10 days old; 20 µM, 24 h, added: (+)-GR24 1 µM; baseline: GR24 alone): decreased
CC1(CCCCCCCCCCCCCCOCCCOP(=O)(O)CO[C@H](CO)Cn2ccc(N)nc2=O)COC1 — selectivity index (Betapolyomavirus hominis; qPCR; Gardner; baseline: CC50 over EC50): 1220
CCCC(CCC)C(=O)NO — IC50 (Lucilia cuprina; larval weight gain; LS strain, larvae on impregnated cotton wool; 24 h): > 1000 µg
CC(C)Oc1cccc(NC(=O)CCCN2C(=O)c3ccccc3C2=O)c1 — mRNA level (Arabidopsis thaliana; qRT-PCR, refers to: AtGH3.3 and IAA19; concentration not given, up to 30 min): increased
CC1(CCCCCCCCCCCCOCCCOP(=O)(O)CO[C@H](CO)Cn2ccc(N)nc2=O)COC1 — selectivity index (human adenovirus 5; cytopathic effect; Adenoid 75; baseline: CC50 over EC50): > 152
CC(=NNC(=N)N)c1nnn(-c2ccc(C#CC3(O)CCCCC3)cc2)c1C — biofilm inhibition (Candida albicans; crystal violet; ATCC 10231; MIC): 75.29 ± 0.53%
Brc1ccc(-c2c[nH]c(-c3ccccn3)n2)cc1 — worm killing (Schistosoma mansoni; female worms; 50 µM): 0%
CC[C@@H](C)[C@@H](NC(=O)[C@@H](C)NC(=O)[C@@H](CCCCN)NC(=O)[C@@H](CC(C)C)NC(=O)[C@@H](CC(C)C)NC(=O)[C@H](NC(=O)[C@@H](CCCCN)NC(=O)[C@@H](CC(C)C)NC(=O)[C@@H](CCCCN)NC(=O)[C@@H](CCCCN)NC(=O)[C@@H](CCCCN)NC(=O)[C@@H](CCCCN)NC(=O)[C@@H](C)NC(=O)[C@@H](CCCCN)NC(=O)[C@@H](CO)NC(=O)[C@@H](Cc1ccccc1)NC(=O)[C@H](NC(=O)[C@@H](CCCCN)NC(=O)[C@@H](CC(C)C)NC(=O)[C@@H](Cc1ccccc1)NC(=O)[C@@H](CO)NC(=O)[C@@H](CCCCN)NC(=O)[C@@H](Cc1c[nH]c2ccccc12)NC(=O)[C@@H](CCCCN)NC(C)=O)[C@H](C)O)[C@H](C)O)C(=O)N[C@H](CO)C(=O)N[C@H](CCCCN)C(N)=O — MIC (Acinetobacter baumannii; 985, Mueller-Hinton broth; 24 h, 37 °C): 0.6 µM (≈ 1.87 µg/mL)
CCOC(=O)C1=C(C)NC2=C(C(=O)CC(C)(C)C2)C1c1ccc(OCC(=O)NN=Cc2cccc([N+](=O)[O-])c2)cc1OCC(=O)NN=Cc1cccc([N+](=O)[O-])c1 (stereo not shown) — inhibition zone diameter (Listeria monocytogenes; NCTC 5348; concentration not given, 24 h, 37 °C): 8.1 ± 0.6 mm
O=C(NO)c1cccc2ccccc12 — IC50 (Lucilia cuprina; larval weight gain; LS strain, larvae on impregnated cotton wool; 24 h): 778 µg
N#Cc1ccc2cccc(O)c2n1 — MIC (Achromobacter xylosoxidans; agar dilution; ATCC 27061): > 1500 µM
CC(C)C[C@H](NC(=O)[C@H](C)N)C(=O)N[C@H](Cc1ccccc1)C(=O)NCCC(=O)O — inhibition (Lolium multiflorum; radicle growth; agar; 67 µg/mL, 12 days, 20 °C): 1%
COc1ccc(-c2nc(-c3ccccc3OC)[nH]c2-c2ccc(OC)cc2)cc1 — worm killing (Schistosoma mansoni; adult male worms; 5 µM): 0%
CN(C)c1ccc(C(=O)N[C@@H](CSCCCC(=O)NO)C(=O)NC2CCCc3ccccc32)cc1 (stereo partly shown) — IC50 (Lucilia cuprina; larval weight gain; LS strain, larvae on impregnated cotton wool; 24 h): 254 µg
COC1C=COC2(C)Oc3c(C)c(O)c4c(c3C2=O)C2=NC3(CCN(CC(C)C)CC3)NC2=C(NC(=O)C(C)=CC=CC(C)C(O)C(C)C(O)C(C)C(OC(=O)Nc2cnccn2)C1C)C4=O (stereo not shown) — IC50 (Mycobacteroides abscessus; intracellular bacterial growth; THP-1 derived macrophages, ATCC 19977): 30 nM
CNc1cc(C(=O)Nc2ccc(Cl)cc2)ccc1OC — serum DHBV DNA (duck hepatitis B virus; viral replication, qPCR; DHBV-infected Pekin ducklings; oral, 25 mg/kg, day 14): inhibited
O=c1[nH]cc(C(c2ccc(F)cc2)c2c[nH]c(=O)[nH]c2=O)c(=O)[nH]1 — antiviral activity (HIV-1 subtype C; refers to: p24; concentration not given): inactive
CC(=O)SCC(=O)c1ccc(NS(=O)(=O)c2ccc(OCCCN(C)C)cc2)nc1 — IC50 (Lucilia cuprina; pupation; LS strain, larvae on impregnated cotton wool; 216 h): 75.3 µg

Some of these lines once more:
O=C(/C=C/c1ccccc1)N[C@@H](CCCCCC(=O)NO)C(=O)Nc1cccc2cccnc12 — IC50 (Lucilia cuprina; pupation; LS strain, larvae on impregnated cotton wool; 216 h): 20 µg
Nc1ncnc2c1ccn2[C@@H]1O[C@H](CO)C[C@H]1O — EC50 (Trypanosoma vivax; parasite growth, resazurin; 24 h): 3480 nM
Oc1c(Cl)cc(Cl)c2cccnc12 — MIC (Shewanella putrefaciens; agar dilution; ATCC 8071): 37.4 µM (≈ 8 µg/mL)
